Experimental data of several laboratories.
Compare with care: the assays were run in different laboratories. Several values in a cell are separate wells, animals, samples, runs or records. Numbers after ± are the reported error.

`CCCCN(CCCC)N=O` has an ATP level of 83.5% (HepaRG 3D spheroids; cell viability; concentration not given, 24 h; reference: vehicle).
With `C[C@H](Cn1cnc2c(N)ncnc21)OCP(=O)(O)O` the intracellular concentration was 0.32 ± 0.08 ng/mL (hCMEC/D3; 5 µM, 1 h).
With `CN[C@@](C)(C[18F])C(=O)O` the tracer uptake was 4 %ID/g (DU-145 tumour model; host not given, tumour; 2 h, tumour-bearing).
`N=C(N)NN` gave a selectivity ratio of greater than 1000 fold (RAW264.7; reference: cytotoxicity IC50 over antiglycation IC50).
`CCN(CC)N=O` gave a relative survival of 80.7% (HepaRG, 2D culture; flow cytometry micronucleus; highest tested concentration, 24 h, plus 3 days hEGF; reference: vehicle).
`C[C@@H]1CCO[C@H]2Cn3cc(C(=O)NCc4ccc(F)cc4F)c(=O)c(O)c3C(=O)N12` gave an intracellular concentration of 48.6 ± 5.04 ng/mL (hCMEC/D3; 10 µM, 1 h).
`CCCN1C(N)=NC(N)=NC12CCN(C(=O)C1CC1)CC2`: “minimum cytotoxic concentration” greater than 100 µM (MDCK; microscopy, altered cell morphology).
With `CC(C)[C@H](N)C(=O)N1CCC[C@H]1C(=O)N[C@@H](Cc1ccccc1)C(=O)N[C@@H](Cc1c[nH]c2ccccc12)C(=O)N[C@@H](C)C(=O)O` the viability was greater than 100% (Caco-2; MTT; 0.5 and 1 mM, 4 h).
The cellular uptake of `COc1cccc2c1C(=O)c1c(O)c3c(c(O)c1C2=O)C[C@@](O)(C(=O)CO)C[C@@H]3O[C@H]1C[C@H](N)[C@H](O)[C@H](C)O1` is reported as roughly 20% (HCT-8/ADR; flow cytometry, item: positive cells; 10 µg/mL, 4 h, 10% FBS).
`O=c1ccn([C@@H]2O[C@](F)(CO)[C@@H](O)C2(F)F)c(=O)[nH]1`: “minimum cytotoxic concentration” greater than 100 µM (HEL embryonic lung fibroblasts; cell morphology, microscopy).
`O=Cc1cc(Cn2cc(F)c(=O)[nH]c2=O)ccc1O`: “minimum cytotoxic concentration” 100 µM (HEL fibroblasts; cell morphology, microscopy).
With `CSCCC(NS(=O)(=O)NCc1cccc(Oc2ccccc2)c1)C(=O)NCCN1CCOCC1` (racemic) the TD50 was 124 ± 25 µM (HG23 norovirus replicon cells; 48 h).
`CC[C@H](C)[C@H](NC(=O)[C@H](CCCNC(=N)N)NC(=O)[C@H](CC(C)C)NC(=O)[C@@H](NC(=O)[C@H](CO)NC(=O)[C@H](CC(C)C)NC(=O)[C@@H](NC(=O)[C@H](CCC(N)=O)NC(=O)[C@H](CO)NC(=O)[C@H](CC(C)C)NC(=O)[C@@H](N)Cc1ccccc1)[C@@H](C)CC)[C@@H](C)O)C(=O)N[C@@H](CC(C)C)C(=O)N[C@@H](CC(C)C)C(N)=O` has an HC50 of 150 µM (human red blood cells; hemolysis; 1 h, 37 °C).
For `C=C(C[C@H](N)C(=O)O)C(=O)NCc1ccc(F)cc1`, “concentration increasing cytotoxicity” read 320 µM (MDA-MB-231; 72 h; reference: vehicle).
`Tricresyl phosphate` — result for “point of departure”: less than 30 µM (human iPSC-derived cardiomyocytes; mitochondrial membrane potential, JC-10; 30 min).
For `COc1cc2c(c(OC)c1OC)-c1c(cc3c(c1OC)OCO3)CC(C)C(C)C2` (centres unmarked), the LD50 was 200 µM and > 200 µM (HepG2; LDH release; 48 h, with: 1-aminobenzotriazole 0.5 mM).
`COc1ccc2c(c1)[nH]c1c(C)nccc12` gave a viability of roughly 100% (Caco-2; MTT; range over 10 to 100 µg/mL, 24 h).
`CON=C(N)c1ccc(-c2ccc(-c3ccc(C(N)=NOC)cc3)o2)cc1` has an IC50 of 82.5 µM (HepaRG; cell growth or viability, resazurin).
Under “point of departure”, `CCCCNC(=O)OCC#CI` is recorded as less than 30 µM (human iPSC-derived cardiomyocytes; mitochondrial membrane potential, item: JC-10 granules; 30 min).
`CC[C@H](C)[C@H](NC(=O)[C@H](Cc1ccc(O)cc1)NC(=O)[C@@H](NC(=O)[C@H](CC(N)=O)NC(=O)[C@H](C)NC(=O)[C@H](CCCNC(=N)N)NC(=O)[C@H](CCCNC(=N)N)NC(=O)[C@H](CC(N)=O)NC(=O)[C@H](CCCNC(=N)N)NC(=O)[C@H](CCCNC(=N)N)NC(=O)[C@H](C)NC(=O)[C@@H](NC(=O)[C@H](CO)NC(=O)[C@@H](NC(=O)[C@@H](NC(=O)[C@H](CS)NC(=O)[C@H](CCCCN)NC(=O)[C@@H](N)CCCNC(=N)N)C(C)C)[C@@H](C)CC)C(C)C)[C@@H](C)CC)C(=O)N[C@@H](CC(C)C)C(=O)N[C@@H](CS)C(=O)N[C@@H](CCCNC(=N)N)C(=O)O` has a hemolysis of 2.02% (human red blood cells; 128 µg/mL, 3 h, 37 °C; reference: Triton X-100).

Repeated from above:
`CON=C(N)c1ccc(-c2ccc(-c3ccc(C(N)=NOC)cc3)o2)cc1` has an IC50 of 82.5 µM (HepaRG; cell growth or viability, resazurin).
Under “point of departure”, `CCCCNC(=O)OCC#CI` is recorded as less than 30 µM (human iPSC-derived cardiomyocytes; mitochondrial membrane potential, item: JC-10 granules; 30 min).
`CC[C@H](C)[C@H](NC(=O)[C@H](Cc1ccc(O)cc1)NC(=O)[C@@H](NC(=O)[C@H](CC(N)=O)NC(=O)[C@H](C)NC(=O)[C@H](CCCNC(=N)N)NC(=O)[C@H](CCCNC(=N)N)NC(=O)[C@H](CC(N)=O)NC(=O)[C@H](CCCNC(=N)N)NC(=O)[C@H](CCCNC(=N)N)NC(=O)[C@H](C)NC(=O)[C@@H](NC(=O)[C@H](CO)NC(=O)[C@@H](NC(=O)[C@@H](NC(=O)[C@H](CS)NC(=O)[C@H](CCCCN)NC(=O)[C@@H](N)CCCNC(=N)N)C(C)C)[C@@H](C)CC)C(C)C)[C@@H](C)CC)C(=O)N[C@@H](CC(C)C)C(=O)N[C@@H](CS)C(=O)N[C@@H](CCCNC(=N)N)C(=O)O` has a hemolysis of 2.02% (human red blood cells; 128 µg/mL, 3 h, 37 °C; reference: Triton X-100).
